Published values collected from several papers.
Protocols differ between the studies behind these lines.
PRKCB isoform beta-I: Protein kinase C beta type, isoform beta-I (PRKCB, Homo sapiens, UniProt P05771)
UniProt P05771, sequence (whole entry, looked up): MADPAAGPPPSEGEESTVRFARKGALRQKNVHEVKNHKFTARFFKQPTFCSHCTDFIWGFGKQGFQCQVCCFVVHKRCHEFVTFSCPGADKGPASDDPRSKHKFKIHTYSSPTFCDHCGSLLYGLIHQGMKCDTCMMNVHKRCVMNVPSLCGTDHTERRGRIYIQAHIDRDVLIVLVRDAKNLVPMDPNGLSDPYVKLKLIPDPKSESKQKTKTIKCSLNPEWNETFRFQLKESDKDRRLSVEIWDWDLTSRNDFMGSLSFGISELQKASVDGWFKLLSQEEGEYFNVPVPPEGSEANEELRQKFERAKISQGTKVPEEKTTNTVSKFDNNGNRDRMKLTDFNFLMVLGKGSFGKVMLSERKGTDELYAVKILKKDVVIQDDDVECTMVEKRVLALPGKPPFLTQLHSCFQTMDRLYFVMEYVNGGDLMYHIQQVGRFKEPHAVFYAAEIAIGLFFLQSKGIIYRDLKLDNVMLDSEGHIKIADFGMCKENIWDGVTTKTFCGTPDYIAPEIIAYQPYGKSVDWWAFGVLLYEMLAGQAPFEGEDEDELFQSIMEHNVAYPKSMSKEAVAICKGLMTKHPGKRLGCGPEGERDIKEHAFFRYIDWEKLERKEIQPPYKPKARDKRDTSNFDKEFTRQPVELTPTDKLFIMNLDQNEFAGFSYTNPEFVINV
PRKCB isoform beta-II: Protein kinase C beta type, isoform beta-II (PRKCB, Homo sapiens, UniProt P05771)

The remaining activity of `Cc1cc(NC(=O)c2cccc3cc(-c4cccc5[nH]nc(N)c45)ccc23)ccc1F` is reported as 106% (PRKCB isoform beta-I; enzyme activity, kinase profiling panel; 0.1 µM).
With `Cc1cc(Nc2cc(N3CCN(C)CC3)nc(Sc3ccc(NC(=O)C4CC4)cc3)n2)[nH]n1` the remaining activity was 109% (PRKCB isoform beta-I; kinase activity, KinaseProfiler; 0.03 µM, species human; baseline: control).
The remaining activity of `Cc1cnc(NC2CCOCC2)nc1-n1cnc(C(=O)NC(CN)c2cc(F)cc(Cl)c2)c1` (stereo not drawn) is reported as 105% (PRKCB isoform beta-II; radiometric; 1 µM).
`CNc1ncc2c(/C=C/C(=O)N3CCC(OC)CC3)nn(Cc3cccc(C(F)(F)F)c3)c2n1` gave a remaining activity of 94% (PRKCB isoform beta-II; inhibitor; 1 µM; baseline: control).
For `CC(C)c1ccc(NC(=O)c2cccs2)c(-c2nc3ccccc3[nH]c2=O)c1`, the remaining activity was 109% (PRKCB isoform beta-I; kinase activity; 1 µM).
`CC(C)(O)[C@H]1CC[C@H](Nc2ccc3ncc(-c4cccc(C(F)(F)F)c4)n3n2)CC1` has a remaining activity of 92% (PRKCB isoform beta-I; enzyme activity, inhibitor; 1 µM, with: 10 µM ATP; baseline: DMSO).
For `COc1cc(-c2cncc3c2CN(C)Cc2cc(N4CCNCC4)ccc2-3)cc(OC)c1OC`, the remaining activity was 102% (PRKCB isoform beta-I; enzyme activity; 1 µM, with: 10 µM ATP; baseline: DMSO).
`COc1cc(F)ccc1-c1ncnc(Nc2cccc(C[S@](C)(=N)=O)c2)n1` gave a remaining activity of 88% (PRKCB isoform beta-II; kinase activity; 10 µM, with: 10 µM ATP).
The remaining activity of `c1cnc2ccc(Nc3nc(NC4CC4)c4nc[nH]c4n3)cc2c1` is reported as 95% (PRKCB isoform beta-II; kinase activity, inhibitor, SelectScreen kinase profiling; 1 µM; baseline: control).
`CCN(CC)c1ccc(C2=NNC(=O)CC2C)cc1[N+](=O)[O-]` (stereo not drawn) has a remaining activity of 101% (PRKCB isoform beta-II; kinase activity, inhibitor; 10 µM).
With `Cc1ccc(NC(=O)c2ccc(C)c(C(F)(F)F)c2)cc1C#Cc1nn(C2CCC(O)CC2)c2ncnc(N)c12` (stereo not drawn) the remaining activity was 100% (PRKCB isoform beta-I; enzyme activity; 10 µM, with: ATP 10 µM).
`Cc1ccc(C(=O)NCc2ccsc2)cc1C#Cc1cn(C(C)C)c2ncnc(N)c12` has a remaining activity of 102% (PRKCB isoform beta-II; kinase activity; 1 µM, with: ATP at Km).
The remaining activity of `CC(C)(C)c1nc2c(s1)c1nc(N)ncc1c1ccc(NS(=O)(=O)c3c(F)cccc3F)c(F)c12` is reported as 94% (PRKCB isoform beta-I; kinase activity, radiometric 33PanQinase; 1 µM; baseline: DMSO).
`COc1cc(Cl)c(C(=O)N[C@@H](CN[C@H]2CC[C@@H](N)CC2)Cc2ccc(C#N)cc2)cc1-c1ccc(CN[C@H](C)c2ccc(C)cc2)o1` has a remaining activity of 94% (PRKCB isoform beta-I; enzyme activity, KinaseProfiler panel; 1 µM).
With `CCCOc1ccc(OC)c(F)c1C(=O)c1ccc(C(=O)N[C@@H]2CNC[C@H]2NC(=O)c2ccc3[nH]ncc3c2)cc1` the remaining activity was 48% (PRKCB isoform beta-I; kinase activity; 10 µM).

For quick reference, copied from above:
`CCN(CC)c1ccc(C2=NNC(=O)CC2C)cc1[N+](=O)[O-]` (stereo not drawn) has a remaining activity of 101% (PRKCB isoform beta-II; kinase activity, inhibitor; 10 µM).
The remaining activity of `c1cnc2ccc(Nc3nc(NC4CC4)c4nc[nH]c4n3)cc2c1` is reported as 95% (PRKCB isoform beta-II; kinase activity, inhibitor, SelectScreen kinase profiling; 1 µM; baseline: control).
